Experimental data pooled from the literature.
A part holds a random share of what one study measured.

Block 1 — method: aptamer microarray, sandwich; form: DNA with 2'F-ANA; matrix: in vitro; concentration: 200 nM; added: Cy3 exosite-II aptamer, 400 nM; reading: higher = stronger binding
Target: Prothrombin, mature alpha-thrombin (F2, Homo sapiens, UniProt P00734)
Notes: whole 15-mer aptamer, many near background
| Oligonucleotide | mean fluorescence intensity [a.u.] |
| --- | --- |
| GGTTGGTGTGGTTGG (2'F-ANA at 1 2 4 5 6 8 13 14 15) | 48.6 |
| GGTTGGTGTGGTTGG (2'F-ANA at 1 2 3 4 6 9 13 14) | 57 |
| GGTTGGTGTGGTTGG (2'F-ANA at 2 3 4 6 10 11 12 14 15) | 161 |
| GGTTGGTGTGGTTGG (2'F-ANA at 2 3 5 8) | 129 |

Block 2 — method: protein-binding microarray; form: double-stranded DNA, one strand shown; matrix: in vitro; concentration: 0.8 µM; notes: whole 60-bp probe, no competitor; reading: higher = stronger binding
Target: Centromere-binding protein 1, full length, N-terminal tag (CBF1, Saccharomyces cerevisiae, UniProt P17106, residues 1-351)
UniProt P17106, sequence (whole entry, looked up): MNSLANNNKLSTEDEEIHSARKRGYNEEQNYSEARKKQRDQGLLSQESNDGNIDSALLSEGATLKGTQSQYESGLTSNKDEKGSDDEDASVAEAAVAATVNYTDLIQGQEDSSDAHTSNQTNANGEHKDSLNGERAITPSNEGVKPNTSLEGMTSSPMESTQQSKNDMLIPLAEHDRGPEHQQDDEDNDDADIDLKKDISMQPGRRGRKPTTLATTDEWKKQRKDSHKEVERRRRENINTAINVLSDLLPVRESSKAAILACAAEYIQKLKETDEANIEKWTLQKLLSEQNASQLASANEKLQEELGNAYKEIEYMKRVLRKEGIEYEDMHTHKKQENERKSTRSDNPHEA
| Oligonucleotide | fluorescence intensity |
| --- | --- |
| GAAGAGTGACCTGAGCAGGTGACTTAGGTGGAGTAGGTCTTGATTCGCTTGACGCTGCTG | 2300 a.u. |
| CTATTTGAATGTCGTTCGTCATCAGCGCGGCCATTCGTCTTGATTCGCTTGACGCTGCTG | 514 a.u. |
| GAAATAGATATTAGTCTGCTGATTATCTAGTTTTAGGTCTTGATTCGCTTGACGCTGCTG | 618 a.u. |

Block 3 — method: RNAcompete; form: RNA; matrix: in vitro; concentration: 20 nM; notes: 7-mer, probes averaged, single round; reference: mean of 7-mers; reading: higher = stronger binding
Target: PABPC1L2, full length, GST fusion (mouse, UniProt A0ABA7IW68)
Target sequence (chain): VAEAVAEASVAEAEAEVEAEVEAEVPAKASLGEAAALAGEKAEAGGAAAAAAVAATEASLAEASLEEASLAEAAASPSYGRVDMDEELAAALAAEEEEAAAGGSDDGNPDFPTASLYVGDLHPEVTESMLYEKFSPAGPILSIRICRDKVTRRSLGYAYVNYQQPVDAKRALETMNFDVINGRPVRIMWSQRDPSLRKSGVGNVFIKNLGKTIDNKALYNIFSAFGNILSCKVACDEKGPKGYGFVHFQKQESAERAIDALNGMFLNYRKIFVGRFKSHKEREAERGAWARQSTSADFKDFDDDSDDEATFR
| Oligonucleotide | 7-mer Z-score |
| --- | --- |
| CGACAGG | -0.0935 |
| CGCAAAU | -0.0047 |
| CCCAUUU | -0.246 |
| AUCCAGU | -0.17 |

Single results of other studies
| Molecule | target | test | test system | conditions | how to read | measurement | result |
| --- | --- | --- | --- | --- | --- | --- | --- |
| PhoQ, residues 284 288 289 292 302 303 SQSLSM | PhoP, residues 12 14 15 18 19 LHATL (Escherichia coli, UniProt P23836) | Sort-seq, item: YFP reporter | E. coli | PhoQ-PhoP variant library, added: 10 µM Mg2+ | reference: high Mg2+ state, higher = stronger signaling | fold induction | 0.771 |

Excerpt of the above (single results of other studies):
| Molecule | target | test | test system | conditions | how to read | measurement | result |
| --- | --- | --- | --- | --- | --- | --- | --- |
| PhoQ, residues 284 288 289 292 302 303 SQSLSM | PhoP, residues 12 14 15 18 19 LHATL (Escherichia coli, UniProt P23836) | Sort-seq, item: YFP reporter | E. coli | PhoQ-PhoP variant library, added: 10 µM Mg2+ | reference: high Mg2+ state, higher = stronger signaling | fold induction | 0.771 |
